Measured values of several laboratories.
A part holds a random share of what one study measured.

Study 1
Target: Replicase polyprotein 1ab, 3C-like proteinase (rep, Middle East respiratory syndrome-related coronavirus, UniProt K9N7C7)
Read-out: enzyme activity
Mode: inhibitor
Organism: MERS-CoV
Tested at: 10 µM
Quantity: inhibition
O=C(O[C@@H]1Cc2c(O)cc(O)cc2O[C@@H]1c1cc(O)c(O)c(O)c1)c1cc(O)c(O)c(O)c1: 16%
O=C1C=CC(=O)C2=C1C1c3ccccc3C2c2ccccc21: 45%
O=c1[nH]nc(Sc2ncc([N+](=O)[O-])s2)n1-c1ccc2c(c1)OCCO2: 84%
Nc1nnc(Sc2ncc([N+](=O)[O-])s2)s1: 45%

Study 2
Target: Histone acetyltransferase KAT6A, winged helix 1, GST fusion (KAT6A, Homo sapiens, UniProt Q92794, residues 1-85)
Technique: protein binding microarray
Molecule type: double-stranded DNA, one strand shown
Medium: in vitro
Tested at: not given
Notes: 8-mer, flanks averaged, mean of 2 arrays, mostly near background
Relative to: not given
Reading: higher = stronger binding
Quantity: E-score
Residues (chain): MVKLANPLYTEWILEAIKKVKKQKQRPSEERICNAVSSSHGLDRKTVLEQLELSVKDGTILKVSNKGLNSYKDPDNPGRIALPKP
CACGGACA: 0.138
AGTCTAGA: -0.22
AGACGAGC: -0.023
CGAAGTTA: -0.152
GCTAAGCC: 0.16
CTCTCTCA: -0.274
AGTTGCTG: -0.0416
ACAGTATA: -0.0449

Study 3
Target: Sal-like protein 4, full length isoform A (SALL4, Homo sapiens, UniProt Q9UJQ4, residues 1-1053)
Sequence of UniProt Q9UJQ4 (whole entry, looked up): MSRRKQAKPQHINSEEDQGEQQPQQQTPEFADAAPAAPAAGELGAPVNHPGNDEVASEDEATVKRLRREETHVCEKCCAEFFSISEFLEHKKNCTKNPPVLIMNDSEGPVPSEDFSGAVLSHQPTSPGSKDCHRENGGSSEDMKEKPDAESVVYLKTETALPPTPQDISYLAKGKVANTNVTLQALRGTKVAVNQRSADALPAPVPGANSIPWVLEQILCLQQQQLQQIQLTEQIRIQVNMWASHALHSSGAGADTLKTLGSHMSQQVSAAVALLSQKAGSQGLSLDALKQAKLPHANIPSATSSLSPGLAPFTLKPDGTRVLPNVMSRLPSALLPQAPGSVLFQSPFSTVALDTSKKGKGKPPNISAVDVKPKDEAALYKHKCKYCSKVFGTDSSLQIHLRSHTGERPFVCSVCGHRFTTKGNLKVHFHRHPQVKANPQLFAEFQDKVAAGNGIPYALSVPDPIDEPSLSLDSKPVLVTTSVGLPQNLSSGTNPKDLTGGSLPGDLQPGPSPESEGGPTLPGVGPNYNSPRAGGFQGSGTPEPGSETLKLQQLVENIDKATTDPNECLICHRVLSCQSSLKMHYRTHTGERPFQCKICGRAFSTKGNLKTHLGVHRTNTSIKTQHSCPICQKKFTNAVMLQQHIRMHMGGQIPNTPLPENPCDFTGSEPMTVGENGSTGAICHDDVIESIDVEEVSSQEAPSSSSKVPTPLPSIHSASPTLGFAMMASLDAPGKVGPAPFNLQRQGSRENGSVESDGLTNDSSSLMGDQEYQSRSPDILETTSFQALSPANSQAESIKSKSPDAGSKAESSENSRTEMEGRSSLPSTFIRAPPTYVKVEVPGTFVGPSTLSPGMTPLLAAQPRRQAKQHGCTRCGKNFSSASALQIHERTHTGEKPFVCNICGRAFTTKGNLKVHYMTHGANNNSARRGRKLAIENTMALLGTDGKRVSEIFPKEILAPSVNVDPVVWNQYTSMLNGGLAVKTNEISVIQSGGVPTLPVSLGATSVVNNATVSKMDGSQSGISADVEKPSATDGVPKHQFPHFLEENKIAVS
Technique: universal PBM
Molecule type: double-stranded DNA, one strand shown
Medium: in vitro
Tested at: 600 nM
Notes: 8-mer, flanks averaged, mean of replicates
Reading: higher = stronger binding
Quantity: E-score
CTAGTAAG: 0.115
GGCAATAA: 0.241
ACCAGACC: -0.233
GTGTAAAC: 0.104
ACGTCCGA: -0.262
ATTCGCCG: -0.141
CCGGCAGG: -0.273
ACTTCGGA: 0.0971

Study 4
Target: Interferon regulatory factor 5, full length, phosphomimetic (IRF5, Homo sapiens, UniProt Q13568-2, residues 1-514, K96S/S451D/S453D/S456D/S462D)
Technique: protein-binding microarray
Molecule type: double-stranded DNA, one strand shown
Medium: in vitro
Tested at: 250 nM
Notes: 60-bp whole probe
Together with: salmon DNA 0.4 mg/ml
Relative to: random background probes
Reading: higher = stronger binding
Quantity: log fluorescence
All sequences stand within: GCCTAGCAC … GTCTTGATTCGCTTGACGCTGCTG
TTACGTTTCGGGTATCGGTTAGTGCTA: 9.94 z-score
GACGATCTCCTACTGCTGACGTGCTAG: -0.0243 z-score
GACTTTTTAGATTTTTTTTCGTGCTAG: 1.13 z-score
TTAGAACTGAGTTGCGATTAGTGCTAG: 0.791 z-score
GACTATATCAGTATCGAGACGTGCTAG: 3.01 z-score
TTAGAACTGTGACTGGATTAGTGCTAG: -0.125 z-score
TCAGGGCTCTTCTCTGAAACTGTGCTA: -0.419 z-score
GACGGTCACCTTATCCTGACGTGCTAG: -0.122 z-score

Study 5
Target: Replicase polyprotein 1ab, nsp13 helicase (rep, Severe acute respiratory syndrome coronavirus 2, UniProt P0DTD1)
Mode: inhibitor
Tested at: 20 µM
Quantity: inhibition
COc1cc(/C=C/C(=O)N2CCCCCCC2)cc(OC)c1OC: 7.94%
CCCCCCCCCCCCCCCC(=O)C(F)(F)F: -4.63%
O=C(O)CCCc1ccc(N(CCCl)CCCl)cc1: -3.32%
COc1ccc(NC(=O)c2ccc(-c3ccc(-c4noc(C)n4)cc3C)cc2)cc1OCCN(C)C: 13.2%
Nc1ncnc2c1c(-c1cnc3[nH]ccc3c1)nn2C1CCCC1: 4.31%
COC(=O)N[C@H](C(=O)N1CCC[C@H]1C(=O)Nc1ccc([C@@H]2CC[C@@H](c3ccc(NC(=O)[C@@H]4CCCN4C(=O)[C@@H](NC(=O)OC)C(C)C)cc3)N2c2ccc(C(C)(C)C)cc2)cc1)C(C)C: -0.37%
CCCCCCCCCCCCCCOc1ccc(C(=O)O)o1: -5.25%
C[N+]1([O-])[C@@H]2CC[C@H]1C[C@@H](OC(=O)C(CO)c1ccccc1)C2 (some centres unmarked): 2.18%
Cn1cc(-c2cnn3c(N)c(Br)c([C@@H]4CCCNC4)nc23)cn1: 21%
NC[C@@H](CC(=O)O)c1ccccc1: 1.9%
CN1CCC(COc2cnc(-c3cccc(Cn4nc(-c5cccc(C#N)c5)ccc4=O)c3)nc2)CC1: 6.23%
COc1cc(NC(=O)c2ccc(-c3ccc(Cl)cc3)o2)cc(OC)c1: 4.12%
Cn1cc(/C=C2\C(=O)Nc3cccnc32)c2ccccc21: 12.3%
Cc1ccc(F)c(NC(=O)Nc2ccc(-c3cccc4[nH]nc(N)c34)cc2)c1: 1.89%
CCC(C)c1ccc(NC(=O)Cn2cnc3c2c(=O)n(C)c(=O)n3C)cc1 (centres unmarked): 0.45%
c1nc(CC2CCNCC2)c[nH]1: 3.71%
CC1(C)CC[C@]2(NC(=O)C(C)(F)F)CC[C@]3(C)[C@H](C(=O)C=C4[C@@]5(C)C=C(C#N)C(=O)C(C)(C)[C@@H]5CC[C@]43C)[C@@H]2C1: 27.8%
O=C1NC(=O)c2c1c1c3ccccc3[nH]c1c1[nH]c3ccccc3c21: 4.6%
Cc1cc(C)cc(NC(=O)Cc2ccc(OC(C)(C)C(=O)O)cc2)c1: 2.62%
COc1c(C)c2c(c(O)c1C/C=C(\C)CCC(=O)OCCN1CCOCC1)C(=O)OC2: 0.44%
CCN(CC)C(=O)N[C@H]1C[C@@H]2c3cccc4[nH]cc(c34)C[C@H]2N(C)C1: 9.73%
CCCN1CCC[C@H](c2cccc(O)c2)C1: -3.31%
CCCN(CCC)C(=O)C(CCC(=O)OCCCN1CCN(CCOC(=O)Cc2c(C)n(C(=O)c3ccc(Cl)cc3)c3ccc(OC)cc23)CC1)NC(=O)c1ccccc1 (centres unmarked): -2.6%
COC(=O)C1=CO[C@@H](O)[C@@H]2C(CO)=CC[C@H]12: 10.7%
O=C(O)c1ccc(-c2ccc3cc(O)c(C45CC6CC(CC(C6)C4)C5)cc3c2)cc1: 5.88%

Excerpt of the above (study 2):
GCTAAGCC: 0.16
CTCTCTCA: -0.274
AGTTGCTG: -0.0416
ACAGTATA: -0.0449
